# Results gathered from unrelated publications.
# Each line is one published result; not all experiments were run side by side. Several values in a cell are separate wells, animals, samples, runs or records. ± gives the spread as reported.
Structure (SMILES),target or system,assay,test system,setting,scale,endpoint,value
COc1ccc2c(c1)CCn1c[n+]3c(c1-2)-c1ccc(OC)cc1CC3,,,"female NSG mice, blood","6 mg/kg, day 20, 5 days per week",,Eosinophils,7.32 ± 5.77%
Cn1ccc(-c2cc(Cl)c(Cl)c3[nH]c4c(c23)CN(C(=O)CO)CC4)n1,,,"C57BL/6 mice, whole blood","intravenous, 0.5 mg/kg",,blood clearance,26.5 mL/min/kg
C=C[C@]1(C)C[C@@H](OC(=O)CSc2ccc(NC(=O)c3ccco3)cc2)[C@]2(C)[C@H](C)CC[C@]3(CCC(=O)[C@H]32)[C@@H](C)[C@@H]1O,,,"Mycoplasma gallisepticum-infected chickens, plasma","intramuscular, 80 mg/kg, 1 h",,plasma concentration,6100 ng/mL and 7560 ng/mL and 6940 ng/mL and 5140 ng/mL and 10200 ng/mL and 9280 ng/mL and 9760 ng/mL and 6390 ng/mL
CN(O)C(=O)CCC(=O)NCCCN(CCCCN(CCCNC(=O)CCC(=O)N(C)O)C(=O)CCC(=O)N(C)O)C(=O)CCC(=O)N(C)O.[89Zr],,,"mouse, fat",4 h,,tracer uptake,0.01 %ID/g
CCCCC[C@@H]1OC(=O)[C@@H](C)N(C)C(=O)[C@H](CCCCC)OC(=O)[C@@H](C)N(C)C(=O)[C@H](CCCCC)N(C)C(=O)[C@@H](C)N(C)C(=O)[C@H](CCCCC)OC(=O)[C@@H](C)N(C)C1=O,,PAMPA,,"500 µM, pH 7.4",,log Papp,-5.28 ± 0.21
CNC(NN=Cc1ccc([N+](=O)[O-])o1)=[S+][Au-][Cl],,UV-Vis,dichloromethane,"0.1 mM, time without spectral change",,solution stability,≥ 72 h
COCC1CN(C2CCN(c3cc(OC)c(Nc4ncc(Br)c(Nc5ccc6c(c5P(C)(C)=O)OCCO6)n4)cc3C)CC2)C1,,,"EGFR-mutant NSCLC patients, plasma","oral, 30 mg single dose, geometric mean",,AUC(0-inf),4710 ng·h/mL
Cc1c(Cc2cc(F)cc(OC(C)(C)C(=O)O)c2)c2ccc(C(=O)N[C@@H](C)c3ccc(C(C)(C)C)cc3)cc2n1CC1CCC1,,,human liver microsomes,"1 µM, added: microsomes 1 mg/mL",,half-life,> 1 h
O=C(Nc1cnccc1-c1ccc([18F])nc1)c1ccnc(NC(=O)C2CC2)c1,,PET imaging,"FVB/NJ mice, both sexes, brain","intravenous, 120 min post-injection",,SUV,0.035
Cc1ccnc(-c2cc(C(=O)O)ccn2)c1.F[P-](F)(F)(F)(F)F.F[P-](F)(F)(F)(F)F.[Ru+2].c1ccc(-c2ccccn2)nc1.c1ccc(-c2ccccn2)nc1,,RNO/histidine method,acetonitrile,added: irradiation 365 nm,reference: phenalenone,singlet oxygen yield,51%
CC(C)C[C@@H]1NC(=O)[C@H](CCCCN)NC(=O)C(N)CCC=CCCC(C(N)=O)NC(=O)[C@H](CCCCN)NC(=O)[C@H](CC(C)C)NC(=O)[C@H](CCCCN)NC(=O)C2CCC=CCCC(NC(=O)[C@H](CCCCN)NC1=O)C(=O)N[C@@H](CCCCN)C(=O)N1CCC[C@@H]1C(=O)NCC(=O)N[C@@H](CCCCN)C(=O)N2 (some centres unmarked),,RP-HPLC C18,,hydrophobicity,,retention time,14.9 min
[123I]c1ccc2nc(-c3ccc(-n4ccnn4)nc3)cn2c1,,,"male Wistar rat, stomach","intravenous, 4 MBq, 6 h",,tracer uptake,1.02 %ID/g
COC(=O)c1c(NC(=O)Cn2cnc([N+](=O)[O-])n2)sc2c1CCC(C)C2 (centres unmarked),Trypanosoma cruzi,"reporter mRNA translation, inhibitor, item: Renilla luciferase mRNA",cell-free extract,"concentration not given, test 2",reference: positive over negative control,translation activity,139% and 87.1%
CC(C)(O)c1ncc([S@](N)(=O)=NC(=O)Nc2c3c(cc4c2CCC4)CCC3)s1,,,healthy human,"oral, 3 mg single dose, capsule formulation",,total adverse events,50%
CC(C)c1cc(C(=O)NCCN(C)C)c2cnn(C(C)C)c2n1,,metabolic stability,"mouse, liver microsomes",,,scaled CLint,457 mL/min/kg
Cc1ccc(SCCOCCN2CC(C)OC(C)C2)cc1.Cl (centres unmarked),Trypanosoma cruzi,"reporter mRNA translation, inhibitor, item: Renilla luciferase mRNA",cell-free extract,"concentration not given, test 2",reference: positive over negative control,translation activity,105% and 121%
O=C1c2ccc3c4ccc5c6c(ccc(c7ccc(c2c37)C(=O)N1CCN1CCCCC1)c64)C(=O)N(CCN1CCCCC1)C5=O,,shake flask,aqueous buffer,pH 7,,logD,2.1

# For quick reference, copied from above:
Structure (SMILES),target or system,assay,test system,setting,scale,endpoint,value
Cc1ccnc(-c2cc(C(=O)O)ccn2)c1.F[P-](F)(F)(F)(F)F.F[P-](F)(F)(F)(F)F.[Ru+2].c1ccc(-c2ccccn2)nc1.c1ccc(-c2ccccn2)nc1,,RNO/histidine method,acetonitrile,added: irradiation 365 nm,reference: phenalenone,singlet oxygen yield,51%
